Results from different studies.
A part holds a random share of what one study measured. Positions count from the first letter of the parent shown.

Series 1
Target: ABI1, truncated, D143A, DHFR fusion (Arabidopsis thaliana)
Method: DHFR PCA, deep sequencing
Medium: yeast
Notes: methotrexate growth selection, single substitutions
Together with: (+)-ABA 2500 µM
Relative to: wild-type fitted maximum
Direction: higher = stronger binding
Endpoint: relative binding score
Starting sequence: PYL1, truncated, DHFR fusion (Arabidopsis thaliana); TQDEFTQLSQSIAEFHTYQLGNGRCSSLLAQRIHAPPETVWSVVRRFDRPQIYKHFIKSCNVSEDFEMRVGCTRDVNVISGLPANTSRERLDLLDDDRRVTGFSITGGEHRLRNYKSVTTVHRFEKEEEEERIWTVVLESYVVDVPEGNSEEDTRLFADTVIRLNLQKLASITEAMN; partner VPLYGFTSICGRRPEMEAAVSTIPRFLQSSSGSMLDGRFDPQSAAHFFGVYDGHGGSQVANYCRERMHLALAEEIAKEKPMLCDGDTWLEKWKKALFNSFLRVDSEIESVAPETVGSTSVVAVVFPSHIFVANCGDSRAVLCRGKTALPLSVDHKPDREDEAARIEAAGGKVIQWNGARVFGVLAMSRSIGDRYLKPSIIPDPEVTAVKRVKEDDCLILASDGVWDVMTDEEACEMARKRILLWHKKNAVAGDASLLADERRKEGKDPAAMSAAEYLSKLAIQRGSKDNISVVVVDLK
I57W: -1.73%
F47V: 27.3%
V78L: 96.3%
G148Q: 92.1%
H34P: 109%
A170V: 88.8%
T101L: 100%
S171D: 97.6%
A175Y: 94.1%
K168F: 86.3%
A158C: 99.4%
E174N: 86.9%
R32N: 87.1%
A84K: -0.00551%
C25R: 64%

Series 2
Organism: Saccharomyces cerevisiae
Observed: peptide binding
Method: yeast competitive growth sequencing
Form: peptide
Strain: cyclin E2-Cln2 fusion
Concentration: concentration not given
Notes: combined libraries
Direction: direction not given
Endpoint: binding score
GSPLKKLFTSTGA: 0.0721
GSPLKKLFTATGL: 0.5
GSPLKKLFTSTAL: -0.372

Series 3
Target: RNA binding protein fox-1 homolog 2, RRM domain, GST-SBP tag (RBFOX2, Homo sapiens, UniProt O43251-10, residues 100-194)
Method: RNA Bind-n-Seq
Form: RNA
Medium: in vitro
Concentration: 365 nM
Notes: natural RNA segment, single round, ends assumed
Relative to: no-protein control
Direction: higher = stronger binding
Endpoint: RBNS enrichment (R)
Construct (chain): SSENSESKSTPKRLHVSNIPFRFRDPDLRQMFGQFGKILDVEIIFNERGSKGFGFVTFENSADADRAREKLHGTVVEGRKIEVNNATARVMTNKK
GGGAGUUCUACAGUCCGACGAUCGACUGGAGACAUUUUCUUGUGUGGUUUUCUGGGUUUCGUCCUUCUGCAGCUGUCAUGGCUUUACAGUCACUUGGGAAAUGCAAGCCACUGUUAAAGCUUUGUCCUGUUCAUGGAAUUCUCGGGUGCCAA: 0.278
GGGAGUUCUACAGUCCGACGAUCCCUUAGGCUGGAUCCUGCUCCUCUGUGAGGAGUAAGGGUGCCUAAUAAAUACAUUUCUGCUUUAUUAGCUCUUGCUUUGGGCUUGUGGUUUCUGACUGGGUUCUUACUUCUGGAAUUCUCGGGUGCCAA: 0.286
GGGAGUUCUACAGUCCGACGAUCACACGAGCUCUUGUGUUGAAAGUGUCCAGGCCGUAGAACUUCAUUGCUACUGACUUUACACAGUUUACAAGUUUCUCUUUGGACAUAUCUGGUAUUAUUACAGAAAUCUCUGGAAUUCUCGGGUGCCAA: 0.446
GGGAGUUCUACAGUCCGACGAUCUGUGGUUAGUUAACCGUACUGAGUUAUCCAUCUAGCAUCUGUGGCUUGCUGGAAGGGUAGUAUUAACUAUUUAACAUGUAAUGGUGUACUUCACUCUUACCUAGCACGCUUGGAAUUCUCGGGUGCCAA: 0.459
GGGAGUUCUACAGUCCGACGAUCUUGAAAAGUUUGAGUGUUACAGGCUCUAAAGUGCAAUGGAGAACAAUUGCUUAGGAGGAGGAAGGGGAAAGUAUACUUAUGUUGGUGUGUAAGCAUGCAUGGAGGCCUCGUGGAAUUCUCGGGUGCCAA: 4.1
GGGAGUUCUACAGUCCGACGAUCUGACAAAAUGACUUUCAUGUUAAGGGGAAAUGCUGUUUAUCUACUCAGACAUGCAUCUGUGAUGUUCAUAGCCUUGUUUCAGUUAUAAUAGUUGUCUUGUUUUUUUCUUAUGGAAUUCUCGGGUGCCAA: 1.08
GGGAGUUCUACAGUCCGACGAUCUAAUAGAUCUGUACCUAUCUAUCUCUGUACGCAUAUAUACAGUUCACUGUAGAAAACCACAGCUAGCGAGCAUCGCAGACUCAUGCAAACCAAGUGAUCUUGUUUACAGUUGGAAUUCUCGGGUGCCAA: 0.333
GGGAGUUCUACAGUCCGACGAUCUCAGUGGACAGGGCAUCUGUUACCCUGAGACCUGUGGCAGACACGUCUUGUUUUCAUUUGAUUUUUGUUAAGAGUGCAGUAUUGCAGAGUCUAGAGGAAUUUUUGUUUCCUGGAAUUCUCGGGUGCCAA: 0.954

Series 4
Target: Protein C-ets-1 (ETS1, Homo sapiens, UniProt P14921, residues 1-441, K379A, full length assumed)
Method: protein-binding microarray
Form: double-stranded DNA, one strand shown
Medium: in vitro
Concentration: not given
Notes: k-mer, scored over probes, only values ≥0.25
Direction: higher = stronger binding
Endpoint: E-score
Construct (chain): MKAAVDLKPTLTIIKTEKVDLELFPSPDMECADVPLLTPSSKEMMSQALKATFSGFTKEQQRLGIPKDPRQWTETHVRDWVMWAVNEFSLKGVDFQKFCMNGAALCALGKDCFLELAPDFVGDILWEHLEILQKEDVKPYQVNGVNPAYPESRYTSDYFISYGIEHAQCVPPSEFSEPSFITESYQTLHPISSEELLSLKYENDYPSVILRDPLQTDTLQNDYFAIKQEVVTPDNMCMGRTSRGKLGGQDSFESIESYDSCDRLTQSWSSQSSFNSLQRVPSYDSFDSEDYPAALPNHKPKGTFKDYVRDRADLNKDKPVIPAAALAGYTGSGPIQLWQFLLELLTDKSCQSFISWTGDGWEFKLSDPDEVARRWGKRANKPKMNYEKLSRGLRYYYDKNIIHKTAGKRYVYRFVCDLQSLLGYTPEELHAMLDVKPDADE
CCCGCGCG: 0.258
CCGGAATC: 0.283
CCGACAAC: 0.325
GAAATGAA: 0.293
CGCATTAC: 0.258
ATATACCG: 0.341
CGGGACAG: 0.289
AGACCGGC: 0.275
AACCCGGT: 0.331
AATCCCGT: 0.273
CAGCCGGA: 0.3
GTCGCGAC: 0.311

Series 5
Target: Ras GTPase-activating protein-binding protein 1, C-terminal RGG region (G3BP1, Homo sapiens, UniProt Q13283)
UniProt Q13283, sequence (whole entry, looked up): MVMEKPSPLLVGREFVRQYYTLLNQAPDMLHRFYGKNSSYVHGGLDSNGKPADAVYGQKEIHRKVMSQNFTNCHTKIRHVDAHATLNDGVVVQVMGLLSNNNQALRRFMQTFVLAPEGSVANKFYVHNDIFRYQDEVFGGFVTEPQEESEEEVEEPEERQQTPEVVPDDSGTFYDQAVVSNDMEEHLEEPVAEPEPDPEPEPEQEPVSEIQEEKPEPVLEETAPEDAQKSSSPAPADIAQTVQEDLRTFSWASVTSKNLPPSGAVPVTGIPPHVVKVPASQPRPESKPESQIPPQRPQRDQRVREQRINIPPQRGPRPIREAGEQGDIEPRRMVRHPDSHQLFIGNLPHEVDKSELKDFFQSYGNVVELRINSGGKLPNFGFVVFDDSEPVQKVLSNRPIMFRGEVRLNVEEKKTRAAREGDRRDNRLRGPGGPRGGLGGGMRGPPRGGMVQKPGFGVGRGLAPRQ
Method: RNA Bind-n-Seq
Form: RNA
Medium: in vitro
Concentration: 1 µM
Notes: whole 134-nt RNA, ends assumed
Together with: 150 mM KCl
Relative to: input library
Direction: higher = stronger binding
Endpoint: log2 enrichment
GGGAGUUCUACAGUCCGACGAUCUCAAGUCCUGUGCUACACAUCGUAUGUACCGAAUCGGUUUGGAGGUUUUUUUGGAAAGUAUUAUGUUACGCCGUUCGGAUCUGCACUUCCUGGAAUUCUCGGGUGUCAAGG: -0.993
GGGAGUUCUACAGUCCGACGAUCUCUCUUGCUCAAGUUUUCUCUCACAGAUGACAGCCACCUACCACAUAACAUGACCAGCAAACGGACUGUUCCUAGUCCAGAGGGCCUUGCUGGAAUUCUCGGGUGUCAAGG: 0.25
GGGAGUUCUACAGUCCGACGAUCAGUCCUGUGCUACACAUCGUAUGUACCGAAUCGGUUUUUUUGGUUUUUUUGGUUUGGAAAGUAUUAUGUUACGCCGUUCGGAUCUGCACUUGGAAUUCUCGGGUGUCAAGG: -1.61
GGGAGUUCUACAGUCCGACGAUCCCUGUGCUACACAUCGUAUGUACCGAAUCGGGGAAAGGGGUUUUUUUGGGGAAAAAGGGGAAAGUAUUAUGUUACGCCGUUCGGAUCUGCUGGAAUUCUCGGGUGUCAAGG: 0.0296
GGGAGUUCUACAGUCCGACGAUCUGGCCCUGGUGGCAUGCGGGGAGGAAGAGGUGGCCUCAUGGAUCGUGGUCGUCCCGGUGGAAUGUUCAGAGGUGGCCGUGGUGGAGACAGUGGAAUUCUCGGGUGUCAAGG: 0.89
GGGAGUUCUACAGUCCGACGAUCAAGUCCUGUGCUACACAUCGUAUGUACCGAAUCGGGUGGGAAAGGGUUUUUUUGGGAAAGUAUUAUGUUACGCCGUUCGGAUCUGCACUUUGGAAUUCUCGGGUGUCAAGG: 0.701
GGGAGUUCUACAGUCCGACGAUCUCAAGUCCUGUGCUACACAUCGUAUGUACCGAAUCGGUGGUUUUUGGAAAAAGGAAAGUAUUAUGUUACGCCGUUCGGAUCUGCACUUCCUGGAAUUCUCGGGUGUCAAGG: -1.14
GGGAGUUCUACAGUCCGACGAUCCCUGUGCUACACAUCGUAUGUACCGAAUCGGGGCCCCCCGGGCCCCCCGGCCCCCCGGGGAAAGUAUUAUGUUACGCCGUUCGGAUCUGCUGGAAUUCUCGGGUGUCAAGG: -2
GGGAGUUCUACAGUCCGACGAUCCAAGUCCUGUGCUACACAUCGUAUGUACCGAAUCGGGGCCGGGGCCGGGGCCGGGAAAGUAUUAUGUUACGCCGUUCGGAUCUGCACUUCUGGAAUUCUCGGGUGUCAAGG: -1.99
